Experimental data of several laboratories.
Parts stem from different laboratories: compare values within a part only. Substitutions count along the parent as printed.

Study 1 — technique: RNAcompete; molecule type: RNA; matrix: in vitro; tested at: 20 nM; notes: 7-mer, probes averaged, single round; relative to: mean of 7-mers; direction: higher = stronger binding
Target: PABPC1L2, full length, GST fusion (mouse, UniProt A0ABA7IW68)
Construct (chain): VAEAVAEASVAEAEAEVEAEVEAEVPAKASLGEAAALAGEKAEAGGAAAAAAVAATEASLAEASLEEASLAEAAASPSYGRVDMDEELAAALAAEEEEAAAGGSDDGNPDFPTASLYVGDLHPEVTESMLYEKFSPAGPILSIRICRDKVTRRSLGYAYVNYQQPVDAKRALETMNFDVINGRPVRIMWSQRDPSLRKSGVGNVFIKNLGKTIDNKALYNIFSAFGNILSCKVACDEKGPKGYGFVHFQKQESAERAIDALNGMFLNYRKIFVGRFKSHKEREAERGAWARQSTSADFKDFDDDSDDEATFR
Sequence | 7-mer Z-score
ACGGCAC | 0.137
AUUGCUA | -0.135
UAGCAAG | -0.0899
AGUCAGG | 0.0913
CAGGGAA | 0.436
CCUCCGU | -0.371
AGCUCGG | -0.17
ACCGAAU | -0.126

Study 2 — technique: aptamer microarray, sandwich; molecule type: DNA with 2'F-ANA; matrix: in vitro; tested at: 200 nM; added: Cy3 exosite-II aptamer, 400 nM; direction: higher = stronger binding; sequence: GGTTGGTGTGGTTGG
Target: Prothrombin, mature alpha-thrombin (F2, Homo sapiens, UniProt P00734)
Notes: whole 15-mer aptamer, many near background
Modification | mean fluorescence intensity [a.u.]
2'F-ANA at 3 4 6 8 14 15 | 266
2'F-ANA at 1 2 3 6 7 8 9 10 13 14 | 91.3
2'F-ANA at 1 2 3 4 5 7 8 9 11 15 | 66.2
2'F-ANA at 4 8 9 11 | 306
2'F-ANA at 1 4 5 9 14 | 81.5
2'F-ANA at 1 2 3 4 8 10 12 14 | 49.4
2'F-ANA at 5 8 11 15 | 62.6
2'F-ANA at 6 8 10 11 13 | 153

Study 3 — target: OGT, full length, His-tagged (human); technique: phage display, sequencing; matrix: in vitro; tested at: 1 µg OGT; relative to: input library; direction: higher = stronger binding; starting sequence: peptide; GDFPVMFMPKYSIIY
Notes: single substitutions, 15-mer displayed peptide, unchanged parent 5.27
Variant | fold enrichment [fold]
F7L | 1.7
I13N | 0.937
G1K | 4.94
I13G | 0.11
P4N | 9.69
G1A | 5.45
K10Y | 4.24
V5A | 5.57

Mixed results
Starting sequence: viral docking peptide; CKVKRKLFGSENI; partner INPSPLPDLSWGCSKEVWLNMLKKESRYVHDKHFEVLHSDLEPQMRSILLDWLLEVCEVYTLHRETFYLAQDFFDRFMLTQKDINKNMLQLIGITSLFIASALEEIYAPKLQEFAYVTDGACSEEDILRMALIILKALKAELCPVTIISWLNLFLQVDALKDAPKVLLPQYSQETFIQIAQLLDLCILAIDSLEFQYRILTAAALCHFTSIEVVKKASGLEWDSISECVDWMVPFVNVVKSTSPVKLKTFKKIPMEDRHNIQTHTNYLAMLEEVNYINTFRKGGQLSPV
Variant | target | test | system | conditions | scale | quantity | value
CKVKRKLFGSENA [I13A] | CCNE2, cyclin fold, Cln2 fusion (human) | yeast growth competition, sequencing | yeast | strong parent motif | relative to: not given, higher = stronger binding | normalised enrichment score | 3.92

Excerpt of the above (study 1):
Sequence | 7-mer Z-score
AGCUCGG | -0.17
UAGCAAG | -0.0899
CAGGGAA | 0.436
AGUCAGG | 0.0913
